Published values from different studies.
A part holds a random share of what one study measured.

Study 1
Target: Sal-like protein 4, full length isoform B (SALL4, Homo sapiens, UniProt Q9UJQ4-2, residues 1-616)
Technique: universal PBM
Molecule type: double-stranded DNA, one strand shown
Medium: in vitro
Concentration: not given
Notes: 8-mer, flanks averaged, mean of replicates
Reading: higher = stronger binding
Residues (chain): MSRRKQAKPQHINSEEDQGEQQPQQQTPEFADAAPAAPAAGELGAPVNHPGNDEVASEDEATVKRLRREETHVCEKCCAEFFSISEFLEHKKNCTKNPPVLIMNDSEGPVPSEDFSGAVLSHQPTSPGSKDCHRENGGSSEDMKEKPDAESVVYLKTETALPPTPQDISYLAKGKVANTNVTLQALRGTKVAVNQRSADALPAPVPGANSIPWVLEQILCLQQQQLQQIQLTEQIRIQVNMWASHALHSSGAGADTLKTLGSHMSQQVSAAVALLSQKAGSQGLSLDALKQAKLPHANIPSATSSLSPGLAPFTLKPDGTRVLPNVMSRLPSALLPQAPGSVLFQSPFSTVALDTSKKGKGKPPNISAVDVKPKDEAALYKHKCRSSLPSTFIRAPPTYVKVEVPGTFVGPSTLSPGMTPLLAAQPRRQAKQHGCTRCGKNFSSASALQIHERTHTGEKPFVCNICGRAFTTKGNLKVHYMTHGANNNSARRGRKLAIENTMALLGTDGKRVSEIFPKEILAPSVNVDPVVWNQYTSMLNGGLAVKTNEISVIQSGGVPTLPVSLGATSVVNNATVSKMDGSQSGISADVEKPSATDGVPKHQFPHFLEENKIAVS
With `ATCACTCA` the E-score was 0.159.
For `CTTGTCCA`, the E-score was -0.0293.
`GTATAAAA` has an E-score of 0.345.
For `AGTGCACG`, the E-score was -0.171.

Study 2
Target: Interferon regulatory factor 5, full length, phosphomimetic (IRF5, Homo sapiens, UniProt Q13568-2, residues 1-514, K96S/S451D/S453D/S456D/S462D)
Technique: protein-binding microarray
Molecule type: double-stranded DNA, one strand shown
Medium: in vitro
Concentration: 250 nM
Notes: 60-bp whole probe
With: salmon DNA 0.4 mg/ml
Reference: random background probes
Reading: higher = stronger binding
Constant ends, left off below: GCCTAGCAC … GTGCTAGGTCTTGATTCGCTTGACGCTGCTG
The log fluorescence of `TCAAGTTTTCCTTCATGACT` is reported as 0.826 z-score.
The log fluorescence of `TCATCTTCTCCTCTAGGACT` is reported as 0.277 z-score.
`GAGGGTTTCGGACTGGGGAC` gave a log fluorescence of 2.06 z-score.
`GACGGTATCCTTCTTCTGAC` gave a log fluorescence of 0.277 z-score.
The log fluorescence of `TCATATTAGAGTCTCAAACT` is reported as 0.234 z-score.

Study 3
Target: POU domain, class 5, transcription factor 1, POU domain (Pou5f1, Mus musculus, UniProt P20263, residues 131-289)
Sequence of UniProt P20263 (131-289, looked up): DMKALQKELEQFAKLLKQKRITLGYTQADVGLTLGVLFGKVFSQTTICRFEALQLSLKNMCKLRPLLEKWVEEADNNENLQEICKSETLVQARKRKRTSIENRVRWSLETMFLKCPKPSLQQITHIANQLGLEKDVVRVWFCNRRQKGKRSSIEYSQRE
Technique: Spec-seq
Molecule type: double-stranded DNA, one strand shown
Medium: in vitro
Concentration: not given
Notes: whole probe, mean of replicates
Reference: not given
Reading: lower = stronger binding
Under “relative binding energy”, `GAGTCGTCTCGTCAGCACATGCTCCGCCGTAGAGCACTCAGGTC` is recorded as 0.815 ln ratio.
Under “relative binding energy”, `GAGTCGTCTCGTCAGCACATGCTAAGCCGTAGAGCACTCAGGTC` is recorded as 0.0519 ln ratio.
`GAGTCGTCTCGTCAGCACTTCTTAATCCGTAGAGCACTCAGGTC` — result for “relative binding energy”: 0.549 ln ratio.

Mixed results
`PhoQ, residues 284 288 289 292 302 303 AGCYAI` has a fold induction of 14.5 (PhoP, residues 12 14 15 18 19 LHSVW (Escherichia coli, UniProt P23836); Sort-seq, item: YFP reporter; E. coli; PhoQ-PhoP variant library, with: 10 µM Mg2+; reference: high Mg2+ state, higher = stronger signaling).

A few entries again (mixed results):
`PhoQ, residues 284 288 289 292 302 303 AGCYAI` has a fold induction of 14.5 (PhoP, residues 12 14 15 18 19 LHSVW (Escherichia coli, UniProt P23836); Sort-seq, item: YFP reporter; E. coli; PhoQ-PhoP variant library, with: 10 µM Mg2+; reference: high Mg2+ state, higher = stronger signaling).
